Experimental data from different studies.
Parts stem from different laboratories: compare values within a part only. Values joined by “and” are separate records of one study, mostly repeats; a detail may differ.
UniProt P42679, sequence (whole entry, looked up): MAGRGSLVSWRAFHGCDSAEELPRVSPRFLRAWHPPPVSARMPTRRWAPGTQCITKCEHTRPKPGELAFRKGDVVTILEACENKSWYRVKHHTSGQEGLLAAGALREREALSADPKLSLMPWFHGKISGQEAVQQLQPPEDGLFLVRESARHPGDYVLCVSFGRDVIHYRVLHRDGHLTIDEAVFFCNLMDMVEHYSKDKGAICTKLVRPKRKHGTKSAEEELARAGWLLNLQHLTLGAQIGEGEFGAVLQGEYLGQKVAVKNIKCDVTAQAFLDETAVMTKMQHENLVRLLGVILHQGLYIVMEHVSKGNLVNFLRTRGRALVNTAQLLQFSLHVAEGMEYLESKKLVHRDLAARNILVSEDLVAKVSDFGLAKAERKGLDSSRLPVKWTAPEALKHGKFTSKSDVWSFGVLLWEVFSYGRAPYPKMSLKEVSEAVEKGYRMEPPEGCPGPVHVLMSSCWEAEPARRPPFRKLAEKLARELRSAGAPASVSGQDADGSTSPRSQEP
UniProt P09619, sequence (whole entry, looked up): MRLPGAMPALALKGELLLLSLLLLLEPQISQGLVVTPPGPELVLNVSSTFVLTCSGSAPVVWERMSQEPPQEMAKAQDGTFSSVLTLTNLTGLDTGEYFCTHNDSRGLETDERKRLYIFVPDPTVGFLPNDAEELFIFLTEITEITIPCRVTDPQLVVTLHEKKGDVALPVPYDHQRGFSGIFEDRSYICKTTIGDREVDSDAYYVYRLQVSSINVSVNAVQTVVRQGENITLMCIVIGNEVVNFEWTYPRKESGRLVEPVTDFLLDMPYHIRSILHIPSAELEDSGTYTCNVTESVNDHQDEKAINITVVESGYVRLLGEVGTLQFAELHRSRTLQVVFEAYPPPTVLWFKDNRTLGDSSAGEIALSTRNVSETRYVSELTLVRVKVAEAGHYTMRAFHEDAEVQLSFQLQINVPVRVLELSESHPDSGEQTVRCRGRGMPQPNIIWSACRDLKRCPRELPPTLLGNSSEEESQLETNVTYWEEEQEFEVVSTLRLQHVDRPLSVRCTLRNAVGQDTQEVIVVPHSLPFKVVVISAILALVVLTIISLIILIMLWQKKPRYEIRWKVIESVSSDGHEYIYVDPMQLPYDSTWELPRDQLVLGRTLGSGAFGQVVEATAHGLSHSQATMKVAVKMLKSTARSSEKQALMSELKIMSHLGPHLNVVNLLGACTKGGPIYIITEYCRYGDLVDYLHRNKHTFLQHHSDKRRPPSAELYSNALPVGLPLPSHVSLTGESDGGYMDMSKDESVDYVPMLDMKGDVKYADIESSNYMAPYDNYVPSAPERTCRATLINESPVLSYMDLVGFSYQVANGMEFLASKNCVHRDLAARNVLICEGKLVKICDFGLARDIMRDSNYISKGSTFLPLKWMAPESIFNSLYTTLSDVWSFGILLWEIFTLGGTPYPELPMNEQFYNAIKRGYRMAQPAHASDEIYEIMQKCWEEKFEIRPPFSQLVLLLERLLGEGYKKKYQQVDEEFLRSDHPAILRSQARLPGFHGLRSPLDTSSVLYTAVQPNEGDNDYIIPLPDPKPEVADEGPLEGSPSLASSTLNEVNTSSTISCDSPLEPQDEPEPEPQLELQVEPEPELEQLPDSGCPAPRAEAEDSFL
UniProt Q9BWU1, sequence (whole entry, looked up): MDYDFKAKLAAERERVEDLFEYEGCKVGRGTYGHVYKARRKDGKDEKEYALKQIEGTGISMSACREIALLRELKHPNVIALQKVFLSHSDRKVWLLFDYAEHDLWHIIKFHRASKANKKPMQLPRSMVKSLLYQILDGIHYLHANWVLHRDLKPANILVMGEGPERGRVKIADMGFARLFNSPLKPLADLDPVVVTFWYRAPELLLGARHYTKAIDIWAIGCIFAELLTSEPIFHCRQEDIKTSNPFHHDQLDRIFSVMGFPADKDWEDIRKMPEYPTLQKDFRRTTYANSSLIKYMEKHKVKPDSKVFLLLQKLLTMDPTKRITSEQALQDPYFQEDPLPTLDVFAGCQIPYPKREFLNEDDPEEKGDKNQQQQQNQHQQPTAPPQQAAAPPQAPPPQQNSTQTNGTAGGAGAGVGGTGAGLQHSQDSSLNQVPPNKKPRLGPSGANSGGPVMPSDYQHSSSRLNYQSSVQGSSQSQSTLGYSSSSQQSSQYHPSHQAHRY
UniProt P07949, sequence (whole entry, unmodified, looked up): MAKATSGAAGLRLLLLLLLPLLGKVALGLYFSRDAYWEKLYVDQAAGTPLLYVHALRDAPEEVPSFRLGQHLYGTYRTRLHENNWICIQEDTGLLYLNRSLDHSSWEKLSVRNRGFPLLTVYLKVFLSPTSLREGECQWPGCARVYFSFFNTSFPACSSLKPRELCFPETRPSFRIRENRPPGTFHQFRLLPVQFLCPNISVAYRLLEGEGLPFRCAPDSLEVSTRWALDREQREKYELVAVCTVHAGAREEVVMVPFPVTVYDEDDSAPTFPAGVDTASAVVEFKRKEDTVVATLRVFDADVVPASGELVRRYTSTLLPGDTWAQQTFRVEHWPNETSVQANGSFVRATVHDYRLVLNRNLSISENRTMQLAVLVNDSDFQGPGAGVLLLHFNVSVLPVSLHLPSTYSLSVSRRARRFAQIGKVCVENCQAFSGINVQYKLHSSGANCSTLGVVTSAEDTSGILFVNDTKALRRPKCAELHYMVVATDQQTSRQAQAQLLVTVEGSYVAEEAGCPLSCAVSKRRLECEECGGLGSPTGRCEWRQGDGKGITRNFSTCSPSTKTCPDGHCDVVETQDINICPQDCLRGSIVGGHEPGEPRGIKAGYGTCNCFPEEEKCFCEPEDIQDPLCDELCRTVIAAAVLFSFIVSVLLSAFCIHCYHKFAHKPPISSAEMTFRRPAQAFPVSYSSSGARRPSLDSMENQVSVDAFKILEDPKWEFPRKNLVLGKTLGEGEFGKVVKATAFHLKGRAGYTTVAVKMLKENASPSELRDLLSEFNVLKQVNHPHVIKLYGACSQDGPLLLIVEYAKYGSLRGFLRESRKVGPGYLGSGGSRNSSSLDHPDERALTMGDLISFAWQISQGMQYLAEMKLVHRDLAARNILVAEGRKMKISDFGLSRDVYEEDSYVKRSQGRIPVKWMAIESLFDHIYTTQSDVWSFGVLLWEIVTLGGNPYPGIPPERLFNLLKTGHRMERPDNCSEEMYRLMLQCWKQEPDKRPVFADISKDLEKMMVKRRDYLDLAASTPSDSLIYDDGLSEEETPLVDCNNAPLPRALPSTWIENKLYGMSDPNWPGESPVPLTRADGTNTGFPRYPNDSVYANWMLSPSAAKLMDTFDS
UniProt P28482, sequence (whole entry, looked up): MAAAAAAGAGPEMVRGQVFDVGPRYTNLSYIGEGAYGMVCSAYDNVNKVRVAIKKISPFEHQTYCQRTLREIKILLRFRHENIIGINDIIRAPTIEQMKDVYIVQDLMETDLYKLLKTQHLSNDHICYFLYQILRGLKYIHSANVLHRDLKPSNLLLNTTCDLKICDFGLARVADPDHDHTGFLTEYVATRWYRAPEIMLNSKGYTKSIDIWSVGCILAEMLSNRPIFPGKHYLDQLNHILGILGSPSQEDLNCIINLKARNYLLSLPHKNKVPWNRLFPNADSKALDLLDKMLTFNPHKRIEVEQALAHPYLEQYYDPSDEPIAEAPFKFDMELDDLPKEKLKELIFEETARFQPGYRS
UniProt P54756, sequence (whole entry, looked up): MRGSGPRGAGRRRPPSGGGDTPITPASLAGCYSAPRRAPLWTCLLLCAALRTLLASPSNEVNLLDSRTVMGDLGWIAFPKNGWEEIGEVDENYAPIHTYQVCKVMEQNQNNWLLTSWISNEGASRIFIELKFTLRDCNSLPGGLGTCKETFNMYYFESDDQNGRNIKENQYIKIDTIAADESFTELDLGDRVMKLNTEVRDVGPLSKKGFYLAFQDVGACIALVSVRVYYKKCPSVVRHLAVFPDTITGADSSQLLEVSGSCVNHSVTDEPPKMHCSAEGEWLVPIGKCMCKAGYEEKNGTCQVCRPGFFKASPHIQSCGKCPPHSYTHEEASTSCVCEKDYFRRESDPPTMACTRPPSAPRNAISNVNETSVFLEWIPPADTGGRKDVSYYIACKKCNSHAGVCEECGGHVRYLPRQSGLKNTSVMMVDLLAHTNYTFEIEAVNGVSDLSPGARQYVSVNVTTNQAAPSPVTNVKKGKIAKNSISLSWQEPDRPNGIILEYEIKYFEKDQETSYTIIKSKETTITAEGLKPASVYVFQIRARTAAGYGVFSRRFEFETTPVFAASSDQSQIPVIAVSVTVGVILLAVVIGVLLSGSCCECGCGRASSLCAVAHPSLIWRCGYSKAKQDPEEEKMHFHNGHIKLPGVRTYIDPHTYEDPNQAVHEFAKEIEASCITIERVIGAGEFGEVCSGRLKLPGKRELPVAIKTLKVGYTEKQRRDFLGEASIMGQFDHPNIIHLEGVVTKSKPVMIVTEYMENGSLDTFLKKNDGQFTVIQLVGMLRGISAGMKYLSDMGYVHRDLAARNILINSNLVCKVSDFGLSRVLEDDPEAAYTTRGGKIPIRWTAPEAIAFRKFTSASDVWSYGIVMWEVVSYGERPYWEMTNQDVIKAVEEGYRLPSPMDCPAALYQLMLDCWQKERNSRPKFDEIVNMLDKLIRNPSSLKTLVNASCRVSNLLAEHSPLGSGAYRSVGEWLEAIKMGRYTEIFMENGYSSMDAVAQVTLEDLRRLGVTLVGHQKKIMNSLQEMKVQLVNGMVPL
UniProt P45983, sequence (whole entry, looked up): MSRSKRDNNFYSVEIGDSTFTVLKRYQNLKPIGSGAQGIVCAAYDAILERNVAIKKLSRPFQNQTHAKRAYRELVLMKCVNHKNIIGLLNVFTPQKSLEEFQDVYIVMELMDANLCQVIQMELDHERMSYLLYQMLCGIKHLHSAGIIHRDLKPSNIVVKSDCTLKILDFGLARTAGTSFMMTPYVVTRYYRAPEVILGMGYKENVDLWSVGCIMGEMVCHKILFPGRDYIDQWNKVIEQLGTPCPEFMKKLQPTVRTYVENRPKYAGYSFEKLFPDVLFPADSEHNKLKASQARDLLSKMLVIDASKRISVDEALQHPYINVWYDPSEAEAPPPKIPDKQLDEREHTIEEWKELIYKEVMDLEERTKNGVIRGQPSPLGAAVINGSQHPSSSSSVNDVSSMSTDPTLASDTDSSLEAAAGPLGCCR

Block 1 — cell line: mouse MPNST tumor cells; method: high-content immunofluorescence imaging; measured: nuclear SOX9; concentration: 10 µM; time: 12 h; notes: mean of 2 replicates; relative to: DMSO control; reading: higher = more nuclear SOX9
COc1cc2c(cc1OC)C(=O)C(CC1CCN(Cc3ccccc3)CC1)C2 (stereo not drawn): “nuclear SOX9 intensity” 128 % of DMSO.
For CCC1(c2ccccc2)C(=O)NCNC1=O, “nuclear SOX9 intensity” read 95.6 % of DMSO and 99.5 % of DMSO.
CC[N+](C)(C)c1cccc(O)c1: “nuclear SOX9 intensity” 94.9 % of DMSO.

Block 2 — organism: Sarcocystis neurona; read-out: parasite growth; concentration: concentration not given; notes: first screen; relative to: untreated
Under “log2 fold change”, Cc1cccc(CCN2CCC(C(=O)c3ccc(NS(C)(=O)=O)cc3)CC2)n1.Cl.Cl is recorded as -0.2.
CCN(CC)C(=O)C1(c2ccccc2)CC1CN.Cl (stereo not drawn): “log2 fold change” -0.18.
CC[N+](C)(CC)CCOC(=O)C(O)(c1ccccc1)C1CCCCC1.[Br-] (stereo not drawn) — result for “log2 fold change”: -0.24.

Block 3 — species: human; matrix: microsomes or S9; concentration: 2 µM; time: 0.5 h
COC(=O)c1ccc(COc2ccc(-c3nnn[nH]3)cc2)cc1 gave a remaining compound of 0.345%.
For CC(C)Cn1c(=O)c2ccc(C(=O)NC3CCCCC3)cc2n2c(=O)n(Cc3ccccc3)nc12, the remaining compound was greater than 100%.
COc1cc(Cl)c(NC(=O)c2cc(S(=O)(=O)N3CCOCC3)cn2C)c(OC)c1 has a remaining compound of 59.8%.

Block 4 — concentration: 1 µM
Structure (SMILES): O=C(NCc1ncc(C(F)(F)F)cc1Cl)c1ccc2c(c1)C1(CCS(=O)(=O)CC1)[C@@H](C1CC1)N2S(=O)(=O)c1ccc(F)cc1
It gave 100% for remaining binding (CDK19 (Homo sapiens, UniProt Q9BWU1); competition binding).
It gave 67% for remaining binding (KIT (Homo sapiens, UniProt P10721, A829P); cell-free assay, competition with immobilised ligand).
PAK4 (Homo sapiens, UniProt O96013); cell-free assay, competition with immobilised ligand — remaining binding: 89%.
EPHA5 (Homo sapiens, UniProt P54756); cell-free assay, competition with immobilised ligand — remaining binding: 77%.
For RET (Homo sapiens, UniProt P07949, M918T); cell-free assay, competition with immobilised ligand: remaining binding read 100%.
For MATK (Homo sapiens, UniProt P42679); cell-free assay, competition with immobilised ligand: remaining binding read 74%.
The remaining binding was 55% (MAPK8 (Homo sapiens, UniProt P45983); cell-free assay, competition with immobilised ligand).
PDGFRB (Homo sapiens, UniProt P09619); cell-free assay, competition with immobilised ligand — remaining binding: 77%.
The remaining binding was 100% (SYK (Homo sapiens, UniProt P43405); cell-free assay, competition with immobilised ligand).
The remaining binding was 83% (MAPK1 (Homo sapiens, UniProt P28482); cell-free assay, competition with immobilised ligand).
It gave 100% for remaining binding (EGFR (Homo sapiens, UniProt P00533, L858R); cell-free assay, competition with immobilised ligand).

Mixed results
CCOc1ccc(Nc2c3c(nc4ccccc24)CCC3)cc1 gave an inhibition of 93% and 99% and 91% and 92% and 89% and 98% and 100% (Leishmania donovani; parasite viability, resazurin; DD8, promastigotes; 16.66 µM).
O=C(COc1ccc(Cl)cc1)NC1CCC(NC(=O)COc2ccc(Cl)cc2)CC1 (stereo not drawn) has a reporter signal of 72.7% and 67% and 61.8% and 73.4% and 88% and 76.7% and 71.2% (HEK293T ATF4-firefly luciferase reporter; integrated stress response, measured: ATF4; concentration not given; relative to: DMSO).
For c1ccc(Oc2ccc(Nc3c4c(nc5ccccc35)CCC4)cc2)cc1, the inhibition was 51% and 52% (Leishmania donovani; parasite killing; DD8, promastigotes; 0.66 µM, 72 h).
For CC(C)n1cnc(-c2ccc(F)cc2)c1-c1ncc(C(=O)Nc2ccc(N3CCN(C)CC3)cc2)[nH]1, “patients with TEAE” read 0% (phase 2a trial; patients with idiopathic pulmonary fibrosis; 30 mg once daily, atopic dermatitis, grade 2).

Repeated from above (block 4):
The remaining binding was 83% (MAPK1 (Homo sapiens, UniProt P28482); cell-free assay, competition with immobilised ligand).
For MATK (Homo sapiens, UniProt P42679); cell-free assay, competition with immobilised ligand: remaining binding read 74%.
The remaining binding was 100% (SYK (Homo sapiens, UniProt P43405); cell-free assay, competition with immobilised ligand).
